Published values collected from several papers.
Protocols differ between the studies behind these lines. ≈ marks a conversion by molar mass, not a printed value.

| Compound | organism | assay | test system | setting | scale | quantity | value |
| --- | --- | --- | --- | --- | --- | --- | --- |
| CC(=O)Oc1cc(C)c(OC(C)=O)c2c1CC=C(CCC=C(C)C)C2 | Leishmania infantum | – | intracellular amastigotes, ex vivo mouse splenic explants | – | baseline: HepG2 CC50 over amastigote EC50 | selectivity index | > 55 |
| C[C@@H](c1ccn(Cc2cc(F)cc(F)c2)n1)[C@](O)(Cn1cnnn1)c1ccc(F)cc1F | Aspergillus fumigatus | growth, broth microdilution | 7544 | 48 h, 35 °C, ≥50% inhibition | – | MIC | 16 µg/mL |
| COc1ccc(C(=O)CSc2nnc(COCCn3c([N+](=O)[O-])cnc3C)o2)cc1F | Serratia marcescens | – | DMSO | 60 µg/mL, 24 h, 37 °C | – | inhibition zone diameter | ≥ 20 mm |
| COC1=CC(c2ccc[nH]2)=NC1=CNC12CC3CC(CC(C3)C1)C2 | Plasmodium yoelii | – | Kenya strain MRA-428, mice | oral, day 5, dosed 4 days | – | ED50 | 84 mg/kg/day |
| O=S(=O)(c1ccccc1)N(CCc1nnc(S)o1)c1ccccc1 | Aspergillus niger | cup plate method | – | 100 µg/mL | baseline: fluconazole | relative inhibition | 38.2% |
| COc1cc(OC(C)=O)c2cc3c(cc2c1OC(C)=O)CCCC3(C)C | Leishmania infantum | – | promastigotes | – | baseline: HepG2 CC50 over promastigote EC50 | selectivity index | 3.3 |
| C=C(C)[C@@H]1CC[C@]2(C(=O)n3ccnc3)CC[C@]3(C)[C@H](CC[C@@H]4[C@@]5(C)CCCNC(C)(C)[C@@H]5CC[C@]43C)[C@@H]12 | Human papillomavirus 11 | viral replication, luciferase reporter | C-33 A | – | – | EC90 | > 1200 nM |
| c1ccc(-c2nc(-c3ccc4ccccc4c3)c[nH]2)cc1 | Schistosoma mansoni | – | female worms | 100 µM | – | worm killing | 0% |
| CC(=O)Oc1ccc(OC(C)=O)c2c1CC1=C(C2)C(C)(C)CCC1 | Leishmania infantum | – | intracellular amastigotes, ex vivo mouse splenic explants | – | baseline: HepG2 CC50 over amastigote EC50 | selectivity index | 30 |
| CNC(CC(C)C)C(=O)NC1C(=O)NC(CC(N)=O)C(=O)NC2C(=O)NC3C(=O)NC(C(=O)NC(C(=O)NCCCNC(=N)N)c4cc(O)cc(O)c4-c4cc3ccc4O)C(O)c3ccc(c(Cl)c3)Oc3cc2cc(c3OC2OC(CO)C(O)C(O)C2OC2CC(C)(NCc3ccc(-c4ccc(Cl)cc4)cc3)C(O)C(C)O2)Oc2ccc(cc2Cl)C1O (centres unmarked) | Enterococcus faecalis and Enterococcus faecium | – | VanA, 4 strains | – | baseline: vancomycin over cpd MIC | potency improvement | ~1000 fold |
| Cc1ncc([N+](=O)[O-])n1CCOCc1nnc(SCC(=O)c2ccc(Cl)cc2)o1 | Serratia marcescens | – | DMSO | 60 µg/mL, 24 h, 37 °C | – | inhibition zone diameter | 15 to 20 mm |
| CC(=O)[O-].O.O.O.O.[Mn+2].[O-]c1ccc(Br)cc1C=NCCN1CCOCC1 | Aspergillus niger | – | – | 20 µL of 100 µM per disc | – | inhibition zone diameter | 26 mm |
| C[C@@H](c1ccn(Cc2ccccc2)n1)[C@](O)(Cn1cnnn1)c1ccc(F)cc1F | Aspergillus fumigatus | growth, broth microdilution | 7544 | 48 h, 35 °C, ≥50% inhibition | – | MIC | > 64 µg/mL |
| COC1=CC(c2ccc[nH]2)=NC1=Cc1[nH]c(Cc2ccc(Cl)cc2)cc1Cc1ccc(Cl)cc1 | Plasmodium yoelii | – | Kenya strain MRA-428, mice | oral, 50 mg/kg daily for 4 days, day 5 | – | parasitaemia suppression | 100% |
| C[C@@H](c1ccn(Cc2ccc(F)c(Cl)c2)n1)[C@](O)(Cn1cnnn1)c1ccc(F)cc1F | Aspergillus fumigatus | growth, broth microdilution | 7544 | 48 h, 35 °C, ≥50% inhibition | – | MIC | > 64 µg/mL |
| Cc1ccc(N(CCc2nnc(S)o2)S(=O)(=O)c2ccccc2)cc1 | Aspergillus niger | cup plate method | – | 100 µg/mL | baseline: fluconazole | relative inhibition | 20.7% |
| CC[C@@H](C)[C@@H](NC(=O)[C@@H](C)NC(=O)[C@@H](CCCCN)NC(=O)[C@@H](CC(C)C)NC(=O)[C@@H](C)NC(=O)[C@H](NC(=O)[C@@H](Cc1c[nH]cn1)NC(=O)[C@@H](CC(C)C)NC(=O)[C@H](NC(=O)[C@H](NC(=O)[C@@H](CCCCN)NC(=O)[C@H](NC(=O)[C@@H](C)NC(=O)[C@@H](CO)NC(=O)[C@@H](CCCCN)NC(=O)[C@@H](Cc1ccccc1)NC(=O)[C@H](NC(=O)[C@@H](CCCCN)NC(=O)[C@@H](CC(C)C)NC(=O)[C@@H](Cc1ccccc1)NC(=O)[C@@H](CO)NC(=O)[C@@H](CCCCN)NC(=O)[C@@H](Cc1c[nH]c2ccccc12)NC(=O)[C@@H](CCCCN)NC(C)=O)[C@H](C)O)C(C)C)[C@H](C)O)C(C)C)[C@H](C)O)C(=O)N[C@H](CO)C(=O)N[C@H](CO)C(N)=O | Acinetobacter baumannii | – | 985, Mueller-Hinton broth | 24 h, 37 °C | – | MIC | 0.7 µM |
| CC(C)CCCc1ccc2c(c1)C(=O)C(Br)=C(Br)C2=O | Leishmania infantum | – | promastigotes | – | baseline: HepG2 CC50 over promastigote EC50 | selectivity index | 1.3 |
| O=C1CC(c2ccc(O)cc2)Oc2cc(O)cc([O][Ga+][O]c3cc(O)cc4c3C(=O)CC(c3ccc(O)cc3)O4)c21 (centres unmarked) | Pseudomonas aeruginosa | significantly changed metabolites, GC-MS metabolomics | – | 4 µM, 4 h | – | number of metabolites | 50 |

| Compound | organism | assay | test system | setting | scale | quantity | value |
| --- | --- | --- | --- | --- | --- | --- | --- |
| COc1ccc(-c2nc(-c3ccccc3OC)[nH]c2-c2ccc(OC)cc2)cc1 | Schistosoma mansoni | – | adult male worms | 25 µM | – | worm killing | 0% |
| CN[C@H](CC(C)C)C(=O)N[C@H]1C(=O)N[C@@H](CC(N)=O)C(=O)N[C@H]2C(=O)N[C@H]3C(=O)N[C@H](C(=O)N[C@H](C(=O)O)c4cc(O)cc(O)c4-c4cc3ccc4O)[C@H](O)c3ccc(c(Cl)c3)Oc3cc2cc(c3O[C@@H]2O[C@H](CO)[C@@H](O)[C@H](O)[C@H]2O[C@H]2C[C@](C)(NCc3ccc(C(=O)OCCCCCCN(Cc4ccccn4)Cc4ccccn4)cc3)[C@H](O)[C@H](C)O2)Oc2ccc(cc2Cl)[C@H]1O | Bacillus subtilis | growth retardation | 168 | concentration not given | – | physiologically effective concentration | 0.75 × MIC |
| CC(C)C[C@@H]1NC(=O)[C@H](CCCCN)NC(=O)[C@H](C(C)C)NC(=O)[C@@H]2CCCN2C(=O)[C@@H](Cc2ccc(O)cc2)NC(=O)[C@H](CC(C)C)NC(=O)[C@H](CCCCN)NC(=O)[C@H](C(C)C)NC(=O)[C@H](CCCCN)NC(=O)[C@H](CC(C)C)NC(=O)[C@@H]2CCCN2C(=O)[C@@H](Cc2ccc(O)cc2)NC(=O)[C@H](C(C)C)NC1=O | fungi | – | – | 24 h, 2 strains | – | MIC geometric mean | 5.7 µg/mL (≈ 3.7 µM) |
| O=c1c(Cl)c(Cl)cnn1Cc1ccccc1Cl | Mycolicibacterium smegmatis | – | EcDsbB-dependent, 7H9 medium | 24 h | – | concentration for full growth inhibition | 400 nM |
| CC1(CCCCCCCCCCCCCCOCCCOP(=O)(O)CO[C@H](CO)Cn2ccc(N)nc2=O)COC1 | human gammaherpesvirus 4 | qPCR | Akata | – | baseline: CC50 over EC50 | selectivity index | > 10 |
| Fc1ccc2c(c1)c1nc3ccc(Br)cc3c-1cn2Cc1cn(-c2ccccc2I)nn1 | Giardia duodenalis trophozoites | UHPLC-Q-TOF-MS, refers to: TG(20:4/20:5/20:5) isomer 3 | – | IC50, 0.1413 h | baseline: 0.25% DMSO | fold change | 9.4 |
| COc1ccc(-n2c(=O)c(C(=O)C3C(=O)CCCC3=O)nc3c(C)cccc32)cc1 | Schoenoplectus juncoides | herbicidal activity, paddy pot test, visual rating | – | 28 days | – | ED90 | 25 g a.i./10 a |
| CC1(C)CCCc2cc3c(cc21)C(=O)C=CC3=O | Leishmania infantum | – | intracellular amastigotes, ex vivo mouse splenic explants | – | baseline: HepG2 CC50 over amastigote EC50 | selectivity index | 0.58 |
| CC1=C(C)C(Oc2c(F)cc3c(C)cc(=O)oc3c2F)OC1=O (racemic) | Pisum sativum | – | rms1 mutant | applied to axillary bud, concentration not given | – | shoot branching inhibition | active |
| C=C(C)[C@@H]1CC[C@]2(CO)CC[C@]3(C)[C@H](CC[C@@H]4[C@@]5(C)CCCNC(C)(C)[C@@H]5CC[C@]43C)[C@@H]12 | Human papillomavirus 11 | viral replication, luciferase reporter | C-33 A | – | – | EC90 | > 6000 nM |
| CC1=CC(c2ccc[nH]2)=NC1=CNC12CC3CC(CC(C3)C1)C2 | Plasmodium yoelii | – | Kenya strain MRA-428, mice | oral, day 5, dosed 4 days | – | ED50 | 20 mg/kg/day |
| C[C@@H](c1ccn(Cc2ccc(F)c(F)c2)n1)[C@](O)(Cn1cnnn1)c1ccc(F)cc1F | Aspergillus fumigatus | growth, broth microdilution | 7544 | 48 h, 35 °C, ≥50% inhibition | – | MIC | 64 µg/mL |
| CCCCCCN=Cc1[nH]c(-c2ccc[nH]2)cc1OC | Plasmodium yoelii | – | Kenya strain MRA-428, mice | oral, day 5, dosed 4 days | – | ED50 | < 5 mg/kg/day |
| Cc1nccc2c3ccccc3n(Cc3cccnc3)c12 | Echinococcus granulosus sensu stricto | – | protoscoleces | 200 µM, 48 h | – | killed protoscoleces | > 90% |
| COC1C=COC2(C)Oc3c(C)c(O)c4c(c3C2=O)C2=NC3(CCN(CC(C)C)CC3)NC2=C(NC(=O)C(C)=CC=CC(C)C(O)C(C)C(O)C(C)C(OC(=O)Nc2cnccn2)C1C)C4=O (centres unmarked) | Mycobacteroides abscessus | – | ATCC 19977 | 1-log kill, replicating cultures | – | MBC | 0.05 µM (≈ 0.0463 µg/mL) |
| CCc1c(C)[nH]c(C=NC23CC4CC(CC(C4)C2)C3)c1C | Plasmodium yoelii | – | Kenya strain MRA-428, mice | oral, 100 mg/kg daily for 4 days, day 5 | – | parasitaemia suppression | 100% |
| C=C(C)[C@@H]1CC[C@]2(C(N)=O)CC[C@]3(C)[C@H](CC[C@@H]4[C@@]5(C)CCCNC(C)(C)[C@@H]5CC[C@]43C)[C@@H]12 | Human papillomavirus 11 | viral replication, luciferase reporter | C-33 A | – | – | EC90 | > 1200 nM |
| CC(C)C[C@@H]1NC(=O)[C@H](CCCCN)NC(=O)[C@@H]2CCCN2C(=O)[C@@H](Cc2ccc(O)cc2)NC(=O)[C@H](CCCCN)NC(=O)[C@H](C(C)C)NC(=O)[C@H](CC(C)C)NC(=O)[C@H](CCCCN)NC(=O)[C@H](C(C)C)NC(=O)[C@@H]2CCCN2C(=O)[C@@H](Cc2ccc(O)cc2)NC(=O)[C@H](CC(C)C)NC(=O)[C@H](CCCCN)NC(=O)[C@H](C(C)C)NC(=O)[C@H](CCCCN)NC1=O | fungi | – | – | 24 h, 2 strains | – | MIC geometric mean | 22.6 µg/mL (≈ 12.6 µM) |
| COC1=CC(c2ccc[nH]2)=NC1=CNC1CCCC1 | Plasmodium yoelii | – | Kenya strain MRA-428, mice | oral, day 5, dosed 4 days | – | ED50 | < 5 mg/kg/day |
